Assay results pooled from the literature.
Every numbered part comes from another study and shows a few of its results, in no order.

Sample 1
Target: Interferon regulatory factor 5, full length, phosphomimetic (IRF5, Homo sapiens, UniProt Q13568-2, residues 1-514, K96S/S451D/S453D/S456D/S462D)
Method: protein-binding microarray
Molecule type: double-stranded DNA, one strand shown
Matrix: in vitro
Tested at: 250 nM
Setting: 60-bp whole probe
With: salmon DNA 0.4 mg/ml
Reference: random background probes
Direction: higher = stronger binding
All sequences stand within: GCCTAGCAC … GTCTTGATTCGCTTGACGCTGCTG
Oligonucleotide | log fluorescence [z-score]
GACGGTGTCGGACTGGGGACGTGCTAG | -0.252
TTAGGTTTCGGGACTGGGTGAGTGCTA | 5.73
GACGATATCGCGACTGGAGACGTGCTA | 0.163
GACGGTCTCGGGCTCGGGACGTGCTAG | -0.439
TTAGGTTTCGACATTGGGTTAGTGCTA | 6.67
TCATAACTCATTTTCGTACTGTGCTAG | 2.31
TTAGATTTCAGTTTCGGTTAGTGCTAG | 10.9
CCAAGGTTCAAGTTTACCCATGTGCTA | -0.365
ATATATTTATGTATACACACGTGCTAG | 0.713
GACGGTTGCCTTTTCCTGACGTGCTAG | 0.139
TTAGGTTTAGACTATCGGTTAGTGCTA | 5.04
TCAGGACTGGACACTGGGTTAGTGCTA | -0.497
TCACATTTTTTTTCATCACTGTGCTAG | 1.38
GACGGTATCGGTTTCGGGGCGTGCTAG | 7.83
TTGCTTTCCTTCTTGAACTCGTGCTAG | 1.98
GACGGCATCCTACTGCTGACGTGCTAG | -0.319
TTAAATCTCAGTATCGATTAGTGCTAG | 7
GACGATTTCAGTGTCGAGACGTGCTAG | 1.01
GACGGTATCGTCTTTCGGGACGTGCTA | 3.69
TAAGGTCTCGGTATCGGTTAGTGCTAG | 5.48
TCAAATCTCTCATGTTACACTGTGCTA | 0.716
GACGGTCTCGCTCTCGGGACGTGCTAG | -0.177
GACGATATCGAGTATCGAGACGTGCTA | 2.8
GATGGACTGCTTATCCTGACGTGCTAG | -0.349
GACGATATCGGGTATCGAGGCGTGCTA | 2.19

Sample 2
Target: RING finger protein unkempt homolog, zinc fingers 1-6, GST-SBP tag (UNK, Homo sapiens, UniProt Q9C0B0, residues 30-357)
Method: RNA Bind-n-Seq
Molecule type: RNA
Matrix: in vitro
Tested at: not given
Setting: RNA with constant flanks, human and mouse sites, ends assumed
Reference: input RNA pool
Direction: higher = stronger binding
All sequences stand within: GGGAGUUCUACAGUCCGACGAUC … CAACAGAGGAUUGAGCAUCA
Target sequence (chain): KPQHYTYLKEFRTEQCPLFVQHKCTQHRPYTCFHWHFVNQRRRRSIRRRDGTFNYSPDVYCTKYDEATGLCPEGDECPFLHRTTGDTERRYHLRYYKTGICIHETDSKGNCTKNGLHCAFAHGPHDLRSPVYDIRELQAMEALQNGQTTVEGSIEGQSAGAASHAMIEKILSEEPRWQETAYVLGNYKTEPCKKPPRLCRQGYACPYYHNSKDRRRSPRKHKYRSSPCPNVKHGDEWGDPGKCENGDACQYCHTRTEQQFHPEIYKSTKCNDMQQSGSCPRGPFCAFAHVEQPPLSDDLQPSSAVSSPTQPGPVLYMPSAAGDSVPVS
Oligonucleotide | bound/input enrichment
AUUGAGAAGGCCCAGAACACAUUCAGAUAUGUCUUGAUUGACACACCUGGACAGAUUGAAGUAUUUACCUGGUCAGCUUCAGGGACAAUCAUCACUGAGGCCCUGGCUUCCUCAUUUCCA | 0.083 ratio
GCUGGAUAUGGAGACAUUUACCUCAAUGCUGGUCCCAUGUUGUUUAGUGGAGACAAGGACCAUAGAUUUGAAUAUAGCCAUGGUCCUAUCACAGUCCUCACAAACAGCAAUGACCCUUCC | 0.117 ratio
CUCUAUGGGCCUCGCAGAGUUGAAAUAAUGGAAGAGGAAAGUGAACAGUAAUCUUCAUUUUAGUAUUUAUGCUUAGAUGUGAAAAUAAAUGUUAUUUGUUGAUCAUUUCUAUAAUCCAGA | 4.81 ratio
GCCAUCACGACACUGCAUAAUCUCCUGCUCCAUCAGGAAGGAGCUAAAAUGGCAGUGCGCCUAGCUGGUGGACUGCAGAAAAUGGUUGCUUUGCUCAACAAAACAAACGUGAAAUUCUUG | 0.0568 ratio
GGAGCAACUCAAGGAUUGAGGACUGGUUUUACAAAUAUACCAAGUAGAUAUGGAACUAAUAAUAGAAUUGGACAACCAAGACCAUGAUAGACUCUAACUUAUUUUUAUAAGGAAUAUUGA | 2.43 ratio
CGAGACCAUCUGAUGUGGGUGCUGCUGCAGUUCAUUUCUGGAAGUAUUCAGAAAAAUGCCCUCGCUGACUUCCUCCCUGUCAUGAAGCUCUUUGACCUGCUGUACCCGGAGAAGGAGUGU | 0.171 ratio
CAAGUUCCCUAUAAAUAUGAUUUAUAUGAAAAAACUUUGAAGUACAAUUCAGACUUACUUAGCAGUAGAAACUGUGUAAGAAAGAAAGGAGACGGGUGUGGUGGAUUUGGGGAACCACUU | 0.348 ratio
GGAAGAGGUGGUGACCAGCAGAGUGGUUAUGGGAAGGUAUCCAGGCGAGGUGGUCAUCAAAAUAGCUACAAACCAUACUAAAUUAUUCCAUUUGCAACUUAUCCCCAACAGGUGGUGAAG | 3.48 ratio
UCCCAGCCCUAGUGACCUUGUCUUCCCAUGGGCUUUUUUCCCUUCCUAGUGUCUGCAGGCUAGGUGCCUCCUCCAUAGGUGGUCCUGCUUUCUGUUCCUGGGGUUAGGGUGGCCCUCUCC | 0.258 ratio
GAGAGCCGCCUGUCCUGGUUAGAUGGUUCGGGAUUAGGAUUCUCACUGGAAUACCCCACCAUUAGUUUACAUGCGGUGUCCAGGGAUCCAAACGCUUACCCUCAAGAGCAUUUGUAUGUU | 0.351 ratio
GAGCCUUCUGAGGACAUUCCAAGACAGUAUACAGUCCUGUGGUCUCCUUGGAAAUCCGUCUAGUUAACAUUUCAAGGGCAAUACCGUGUUGGUUUUGACUGGAUAUUCAUAUAAACUUUU | 1.21 ratio

Sample 3
Organism: Saccharomyces cerevisiae
Effect on: pheromone growth arrest
Method: yeast competitive growth sequencing
Molecule type: peptide
Strain: no Cln2 overexpression
Setting: peptide tiling library
Direction: direction not given
Molecule | enrichment score
KPKPVKPVTFSTGIKM | 0.523
VLVRTSACRSLFGPVD | -0.0972
PAKRRLELGE | 0.408
KPHVSDEEEEEPPFYH | 0.273
DGCSPIKNWSPMRL | 0.677
PARRRLRLSVDEVSSP | 0.136
IVLICAKRSLCAAFSV | -0.559
DTERAHSTLDEDLERW | 0.255
TARRIFQEPTEPKTKA | 0.0222
SAVPLILPQAPSGPSY | 0.131
FQDSGYNELKSCSFDN | 0.229
GLPDFVFQQQPVESEA | 0.342

Sample 4
Target: Centromere-binding protein 1, full length, N-terminal tag (CBF1, Saccharomyces cerevisiae, UniProt P17106, residues 1-351)
Sequence of UniProt P17106 (whole entry, looked up): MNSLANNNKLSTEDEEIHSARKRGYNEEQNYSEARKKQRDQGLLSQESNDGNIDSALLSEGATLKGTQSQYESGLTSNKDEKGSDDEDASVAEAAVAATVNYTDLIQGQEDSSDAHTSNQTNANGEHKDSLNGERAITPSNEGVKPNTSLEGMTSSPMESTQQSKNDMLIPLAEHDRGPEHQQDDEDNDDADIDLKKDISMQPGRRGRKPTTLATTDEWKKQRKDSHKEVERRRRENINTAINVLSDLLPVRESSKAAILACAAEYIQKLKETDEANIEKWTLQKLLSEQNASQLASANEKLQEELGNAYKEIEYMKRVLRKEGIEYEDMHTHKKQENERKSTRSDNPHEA
Method: protein-binding microarray
Molecule type: double-stranded DNA, one strand shown
Matrix: in vitro
Tested at: 0.8 µM
Setting: whole 60-bp probe, no competitor
Direction: higher = stronger binding
All sequences stand within: … GTCTTGATTCGCTTGACGCTGCTG
Oligonucleotide | fluorescence intensity [a.u.]
CTACAGCATATACGTCACGTTCTGCTCATCGTGTTC | 2010
GAAATAAAAAGGGCAATCATGATGGCCATCGACTAG | 488
GAATGCTTTTCAAATCACGAACGCAATCAGTACTAG | 656
GAACGAGTGATGCGACACGTGATAGGTAGTAACTAG | 9200
GAACCTTTACGGGCGTGCATGATGTATCAGGAATAG | 577
CTATCACTATGCACTGATGACGTCATTGTCAATTTC | 546
GAAATTAAAGTAATCCATGTGGTAAATAAAATCTAG | 625
CTAAAATTTCCGAATCACATGTTCGTAAAACAATTC | 4620
GAACTAACTGAAAGGCATGTGGGTTTGTGTGTGTAG | 550
TGTACGAAGCTATGGTCGGTCACTATAGTAGTTAGG | 514
TGTACGAAGCTATAGCACGTAGTTATAGTAGTTAGG | 697
TGTACGAAGCTATGTCATGTGGATATAGTAGTTAGG | 1020
CTAACTATTCTTATTAACGTGGTAATATTAAAGTTC | 635
GAACTTCTCTGTTGTGGTGATGTCGTGATACCATAG | 1230
GAAACTATAGCTCAAAGCGTGGCTAGCCTTTGATAG | 470
CTAATCCATAAAAGAAACGTGATGGTCGTTCCCTTC | 999
CCTAACTACTATAGTCTGGTGATATAGCTTCGTACA | 545

For quick reference, copied from above (sample 1):
Oligonucleotide | log fluorescence [z-score]
TTAGGTTTAGACTATCGGTTAGTGCTA | 5.04
TCAGGACTGGACACTGGGTTAGTGCTA | -0.497
GACGATTTCAGTGTCGAGACGTGCTAG | 1.01
CCAAGGTTCAAGTTTACCCATGTGCTA | -0.365
TCATAACTCATTTTCGTACTGTGCTAG | 2.31
